{"data": "Literature values that unrelated publications cite", "note": "Compare with care: the assays were run in different laboratories. ± marks the error that the study gave."}
{"SMILES": "FC(F)(F)c1ccc(Oc2ccc(-c3noc(-c4ccc5[nH]ccc5c4)n3)cc2)cc1", "organism": "Gram-negative bacteria", "setting": "concentration not given", "quantity": "antibacterial activity", "result": "inactive"}
{"SMILES": "COc1cccc(N2CCN(C3=Nc4c(F)cccc4[C@H](CC(=O)O)N3c3cc(C(F)(F)F)ccc3OC)CC2)c1", "organism": "human cytomegalovirus", "assay": "viral replication", "system": "UL56 V236M mutant", "quantity": "EC50", "result": "102 nM"}
{"SMILES": "CC1(C)S[C@@H]2[C@H](NC(=O)Cc3ccccc3)C(=O)N2[C@H]1C(=O)O", "organism": "Streptococcus pneumoniae", "assay": "E-test", "system": "strain 700676 serotype 14 resistant", "quantity": "MIC", "result": "0.03 µg/mL"}
{"SMILES": "Nc1ccn(C[C@@H](CO)OCP(=O)(O)O)c(=O)n1", "organism": "human cytomegalovirus", "assay": "viral replication", "system": "UL54 A987G resistant", "quantity": "EC50", "result": "3400 nM"}
{"SMILES": "O=C(NCCN1CCCC1)c1cc(-c2ccc(CN3CCOCC3)cc2)nc2ccc(F)cc12", "organism": "Plasmodium falciparum", "system": "3D7 P754A mutant", "how to read": "baseline: parental strain", "quantity": "IC50 fold increase", "result": "40 fold"}
{"SMILES": "CCCCCCCc1cc(=O)c2ccccc2[nH]1", "organism": "Plasmodium falciparum", "assay": "whole cell extended time", "system": "3D7", "setting": "72 h", "quantity": "IC50", "result": "320 nM"}
{"SMILES": "CN[C@H](CC(C)C)C(=O)N[C@H]1C(=O)N[C@@H](CC(N)=O)C(=O)N[C@H]2C(=O)N[C@H]3C(=O)N[C@H](C(=O)N[C@H](C(=O)O)c4cc(O)cc(O)c4-c4cc3ccc4O)[C@H](O)c3ccc(c(Cl)c3)Oc3cc2cc(c3O[C@@H]2O[C@H](CO)[C@@H](O)[C@H](O)[C@H]2O[C@H]2C[C@](C)(N)[C@H](O)[C@H](C)O2)Oc2ccc(cc2Cl)[C@H]1O", "organism": "Lactobacillus sp.", "system": "HM-102", "quantity": "MIC", "result": "> 32 µg/mL"}
{"SMILES": "Cl.N=C(CC(O)c1cc2c(F)cc(F)cc2c2cc(C(F)(F)F)ccc12)Nc1ccc(F)c(F)c1 (stereo not drawn)", "organism": "Plasmodium berghei", "system": "ANKA, mouse", "setting": "oral, 50 mg/kg, 4 doses", "quantity": "mean survival time", "result": "30 days"}
{"SMILES": "CO/N=C(\\C(=O)N[C@@H]1C(=O)N2C(C(=O)O)=C(COC(C)=O)CS[C@H]12)c1csc(N)n1", "organism": "Streptococcus pneumoniae", "assay": "E-test", "system": "strain 700678 serotype 19A resistant", "quantity": "MIC", "result": "1 µg/mL"}
{"SMILES": "Nc1nc(O)c2ncn(COC(CO)CO)c2n1", "organism": "human cytomegalovirus", "assay": "viral replication", "system": "UL97 M460V mutant", "quantity": "EC50", "result": "13800 nM"}
{"SMILES": "CC1(C)NC(=O)N(c2ccc(F)c(C(F)(F)F)c2)C1=O", "organism": "Schistosoma mansoni", "system": "juvenile, infected mice", "setting": "oral, single dose", "quantity": "ED50", "result": "140 mg/kg"}
{"SMILES": "Oc1cccc(C2CCCN(CCc3c[nH]c4ccccc34)C2)c1 (stereo not drawn)", "organism": "Plasmodium falciparum", "assay": "whole cell extended time", "system": "3D7", "setting": "72 h", "quantity": "IC50", "result": "860 nM"}
{"SMILES": "CCC[C@@H]1C[C@@H](C(=O)N[C@@H]([C@H]2O[C@H](SC)[C@H](O)[C@@H](O)[C@H]2O)[C@H](C)Cl)N(C)C1", "organism": "Streptococcus pneumoniae", "assay": "E-test", "system": "strain 700678 serotype 19A resistant", "quantity": "MIC", "result": "> 32 µg/mL"}
{"SMILES": "CC(C)CCCCCCCCC[C@@H]1CC(=O)N[C@@H](CCC(=O)O)C(=O)N[C@@H](CC(C)C)C(=O)N[C@H](CC(C)C)C(=O)N[C@@H](C(C)C)C(=O)N[C@@H](CC(=O)O)C(=O)N[C@H](CC(C)C)C(=O)N[C@@H](CC(C)C)C(=O)O1", "organism": "transmissible gastroenteritis virus", "system": "epithelial cells", "how to read": "range over", "quantity": "antiviral concentration range", "result": "15 to 50 µg/mL"}
{"SMILES": "C=C(C)C[C@@H](O)COc1cc2c(cc1C1(c3cc4c(cc3OC[C@H](O)CC(=C)C)OCO4)C(=O)Nc3cc(F)ccc31)OCO2", "organism": "Candida albicans", "system": "fluconazole-resistant, Cdr1 upregulated", "setting": "50 µM, with: fluconazole", "quantity": "MIC of fluconazole", "result": "64 µg/mL"}
{"SMILES": "C/C(=C\\C(=O)OCCCCCCCCC(=O)O)C[C@@H]1OC[C@H](C[C@@H]2O[C@H]2[C@@H](C)[C@H](C)O)[C@@H](O)[C@H]1O", "organism": "Staphylococcus aureus", "system": "Newman", "quantity": "MIC", "result": "0.25 µM"}
{"SMILES": "Cc1c(CN(C)C(=O)/C=C/c2cnc3c(c2)CCC(=O)N3)oc2ccccc12", "organism": "Staphylococcus aureus", "system": "MRSA 43300", "setting": "32 x MIC, 4 h, 35 °C", "quantity": "post-antibiotic effect", "result": "0.2 ± 0.1 h"}
{"SMILES": "O=C(NC1CCC(CN2CCC(c3c[nH]c4ccccc34)CC2)CC1)c1[nH]c(=O)[nH]c(=O)c1F (stereo not drawn)", "organism": "Plasmodium falciparum", "assay": "whole cell extended time", "system": "3D7", "setting": "72 h", "quantity": "IC50", "result": "800 nM"}
{"SMILES": "CC[C@H]1OC(=O)[C@H](C)[C@@H](O[C@H]2C[C@@](C)(OC)[C@@H](O)[C@H](C)O2)[C@H](C)[C@@H](O[C@@H]2O[C@H](C)C[C@H](N(C)C)[C@H]2O)[C@](C)(O)C[C@@H](C)C(=O)[C@H](C)[C@@H](O)[C@]1(C)O", "organism": "Streptococcus pneumoniae", "assay": "E-test", "system": "strain 700676 serotype 14 resistant", "quantity": "MIC", "result": "32 µg/mL"}
{"SMILES": "CC(C)Nc1nc2cc(Cl)c(Cl)cc2n1[C@H]1O[C@@H](CO)[C@H](O)[C@@H]1O", "organism": "human cytomegalovirus", "assay": "viral replication", "system": "UL97 F342Y mutant", "setting": "concentration not given", "how to read": "baseline: wild type", "quantity": "resistance fold change", "result": "4.5 fold"}
{"SMILES": "CC(C)=CCN1Cc2cc(Cl)cc3[nH]c(=S)n(c23)C[C@@H]1C", "organism": "HIV-1", "assay": "viral replication", "system": "CEM", "quantity": "IC50", "result": "150 nM"}
{"SMILES": "COc1ccc(C[C@H]2NC[C@H](O)[C@H]2OC(C)=O)cc1", "organism": "Giardia", "quantity": "IC50", "result": "18500 nM"}
{"SMILES": "N/C(CC(O)c1cc2c(F)cc(F)cc2c2cc(C(F)(F)F)ccc12)=N\\c1ccc(F)cc1 (stereo not drawn)", "organism": "Plasmodium falciparum", "system": "Dd2", "quantity": "IC50", "result": "3.5 ± 2.4 nM"}
{"SMILES": "Nc1ncn([C@@H]2O[C@H](CO)[C@@H](O)[C@H]2O)c(=O)n1", "organism": "HIV-1", "assay": "infectivity", "quantity": "EC50", "result": "57000 nM"}
{"note": "Repeated from above:"}
{"SMILES": "Nc1nc(O)c2ncn(COC(CO)CO)c2n1", "organism": "human cytomegalovirus", "assay": "viral replication", "system": "UL97 M460V mutant", "quantity": "EC50", "result": "13800 nM"}
{"SMILES": "COc1ccc(C[C@H]2NC[C@H](O)[C@H]2OC(C)=O)cc1", "organism": "Giardia", "quantity": "IC50", "result": "18500 nM"}
